Results of several laboratories.
Compare with care: the assays were run in different laboratories.
Chain of UniProt Q12851 (whole entry, looked up): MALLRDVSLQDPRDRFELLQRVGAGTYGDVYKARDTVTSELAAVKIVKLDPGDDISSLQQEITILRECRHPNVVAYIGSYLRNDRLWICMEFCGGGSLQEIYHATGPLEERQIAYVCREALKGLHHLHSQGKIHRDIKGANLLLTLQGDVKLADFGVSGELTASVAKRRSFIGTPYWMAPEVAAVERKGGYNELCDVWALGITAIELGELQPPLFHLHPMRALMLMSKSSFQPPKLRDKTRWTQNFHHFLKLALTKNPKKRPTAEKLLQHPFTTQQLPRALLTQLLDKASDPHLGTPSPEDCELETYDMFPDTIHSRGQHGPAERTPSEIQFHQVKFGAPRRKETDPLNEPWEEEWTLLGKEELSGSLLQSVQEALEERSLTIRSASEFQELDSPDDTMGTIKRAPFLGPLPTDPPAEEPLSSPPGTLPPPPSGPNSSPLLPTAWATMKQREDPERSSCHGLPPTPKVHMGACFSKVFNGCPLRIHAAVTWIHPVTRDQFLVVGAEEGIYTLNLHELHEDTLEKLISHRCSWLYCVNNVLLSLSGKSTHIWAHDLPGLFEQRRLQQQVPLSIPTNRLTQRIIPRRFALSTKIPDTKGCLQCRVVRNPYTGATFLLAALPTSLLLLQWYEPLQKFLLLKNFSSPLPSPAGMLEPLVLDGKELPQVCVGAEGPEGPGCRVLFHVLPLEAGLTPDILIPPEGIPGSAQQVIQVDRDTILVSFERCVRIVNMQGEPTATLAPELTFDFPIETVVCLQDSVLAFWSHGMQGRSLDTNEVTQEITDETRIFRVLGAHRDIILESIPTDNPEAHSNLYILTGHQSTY

`C=C(C)[C@]12C[C@@H](C)[C@@]34OC(c5ccccc5)(O[C@@H]1[C@@H]3[C@H](O)[C@](O)(COC(=O)c1ccccc1)[C@@H](O)[C@@]1(O)[C@H]4C[C@H](C)[C@@H]1O)O2` gave an IC50 of 19.1 µM (MT4; cell growth or viability).
`CCOC(=O)C1=C(CN2CCC[C@H]2C(=O)Nc2cccc(B(O)O)c2)NC(c2nccs2)=N[C@H]1c1ccc(F)cc1Br` gave a CC50 of 31.5 µM (HepDES19; cell growth or viability, MTS; 72 h).
`CC(C)[C@H](NC(=O)/C=C/c1ccccc1)C(=O)N[C@H](C=O)C[C@@H]1CCCNC1=O` gave a CC50 of > 100 µM (A549; cell growth or viability, MTT; 24 h).
With `[2H]c1c([2H])c([C@]2([2H])CCCN2C(=O)C(C)(C)Oc2ccc3cn[nH]c3c2)c([2H])c([2H])c1C([2H])([2H])[2H]` the remaining binding was 61% (MAP4K2 (Homo sapiens, UniProt Q12851); binding, competition with immobilised ligand; 1 µM).
The CC50 of `CCOC(=O)C1=C(CN2CCC(C(=O)Nc3ccccc3B3OC(C)(C)C(C)(C)O3)C2)NC(c2nccs2)=NC1c1ccc(F)cc1Br` (stereo not shown) is reported as > 50 µM (HepDES19; cell growth or viability, MTS; 72 h).
The viability of `CN[C@@H]1C[C@H]2O[C@@](C)([C@@H]1OC)n1c3ccccc3c3c4c(c5c6ccccc6n2c5c31)C(=O)NC4` is reported as 49.8% (NCI-H1975; cell growth or viability, MTT; 6.3 µg).
The CC50 of `CCC[C@H](NC(=O)/C=C/c1ccccc1)C(=O)N[C@@H](CC(C)C)C(=O)N[C@H](C=O)C[C@@H]1CCCNC1=O` is reported as > 100 µM (A549; cell growth or viability, MTT; 24 h).
`CCOC(=O)C1=C(CN2CCC[C@H]2C(=O)Nc2ccc(B(O)O)cc2)NC(c2nccs2)=N[C@H]1c1ccc(F)cc1Br` gave a CC50 of 32.5 µM (HepDES19; cell growth or viability, MTS; 72 h).
`CC(C)(C)[C@H](NC(=O)/C=C/c1ccccc1)C(=O)N[C@H](C=O)C[C@@H]1CCCNC1=O` gave a CC50 of > 100 µM (A549; cell growth or viability, MTT; 24 h).
`OC(c1ccc(F)cc1)C(F)(F)CCN1CCC(O)(c2ccc(Cl)cc2)CC1` (racemic) has a Papp B→A of 7.84 ×10⁻⁶ cm/s (MDR1; MDCK-MDR1; 2 h).

Excerpt of the above:
`CC(C)(C)[C@H](NC(=O)/C=C/c1ccccc1)C(=O)N[C@H](C=O)C[C@@H]1CCCNC1=O` gave a CC50 of > 100 µM (A549; cell growth or viability, MTT; 24 h).
